Measurements of several laboratories.
Parts stem from different laboratories: compare values within a part only. Changes are numbered by the printed parent chain.

Set 1
Target: CCNE2, cyclin fold, Cln2 fusion (human)
Method: yeast growth competition, sequencing
Matrix: yeast
Setting: strong parent motif
Relative to: not given
Direction: higher = stronger binding
Starting sequence: WEE1 docking peptide (human); HKTFRKLRLFDTP
Variant	normalised enrichment score
HKTFRKLRPFDTP [L9P]	0.108
HKTFRKLRTFDTP [L9T]	-0.397
HKTFRTLRLFDTP [K6T]	0.647
HKTDRKLRLFDTP [F4D]	-0.198
HKTFRHLRLFDTP [K6H]	0.365
HKTFRKERLFDTP [L7E]	0.301
HKTFRKLRLFDTG [P13G]	-0.302
HSTFRKLRLFDTP [K2S]	0.707
HKTFYKLRLFDTP [R5Y]	1.04
HKTFRKLRLFDEP [T12E]	1
HKTFRKLRLFDTE [P13E]	0.403
HKTFRKLRQFDTP [L9Q]	0.292
HKTFRKLRLFDDP [T12D]	1.51
HKTFRKLRLSDTP [F10S]	0.29
HKTFRKLRLFDTV [P13V]	0.934
LKTFRKLRLFDTP [H1L]	-1.16
HKTFRKLRLFDSP [T12S]	1.18
HKPFRKLRLFDTP [T3P]	0.513
HKTFRKLRLFDTK [P13K]	0.895
IKTFRKLRLFDTP [H1I]	2.76
HKTFRKLRLFDCP [T12C]	0.491
HKTTRKLRLFDTP [F4T]	1.07
HKTFRKLRLYDTP [F10Y]	0.0989
HKTRRKLRLFDTP [F4R]	1.05
HYTFRKLRLFDTP [K2Y]	0.941

Set 2
Target: RNA binding protein fox-1 homolog 2, RRM domain, GST-SBP tag (RBFOX2, Homo sapiens, UniProt O43251-10, residues 100-194)
Method: RNA Bind-n-Seq
Form: RNA
Matrix: in vitro
Tested at: 365 nM
Setting: natural RNA segment, single round, ends assumed
Relative to: no-protein control
Direction: higher = stronger binding
Shared flanks, not repeated: GGGAGUUCUACAGUCCGACGAUC … UGGAAUUCUCGGGUGCCAA
Residues (chain): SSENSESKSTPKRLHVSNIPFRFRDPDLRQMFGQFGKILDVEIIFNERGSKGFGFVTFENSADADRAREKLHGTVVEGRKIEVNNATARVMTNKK
Oligonucleotide	RBNS enrichment (R)
AACACUCGCUUCAGCUCAGACUCAGUGGACAUCAGAGUCUCUGUCUCCGUGUCUCAGUUAUGGUCUGCUCUCUCUAUGCCUGGAGCUACUGAUCCAAACACAAGACGGUC	0.308
ACGCCCCCCAGCGCACAUGUAGUCCUGAGUCCUCCCUGCCUGAGAGGCCACUGGCCCCGCAGCCCUUGGGAGGCCCCCGUGGAUGUGGCCCUGUGUGGGACCACACUGUC	0.288
GCACAACAGUUGGCACUUCUGUCUAGAAAAUAAUAAUUGCAAGUUGUAUAACUCAGGCGUCUUUGCAUUUCUGCGAAAGAUCAAGGUCUGCAAGGGAAUUCUUGUGUGCU	0.768
CAGCUGACUGCUGGUCCGGCUUCUGACCGGCCUUUGUCCUGGCUCCGUAGCAGAACACUGUAAAAGUGCCCGCGUCUUUGCAGUAGUUGCAGAUUUCAGUCGUCGUGUUA	0.349
CAGUGGAGGGUUUUUAUUUUUAUUUUUUUAAAAGUUUAGGUGCCUUUGCGGAUGACCUCAUUUUGAUGUUAAAAAAAAACUGAUUUUUUUAAUAUGUGGACGCUGCAAAA	0.701
UUGAGACUGAAGGUUCUUUAAAGACCGUAAGGAUGGCUUCCGACGUGUCAUGCUGCUGCUGUGAUCUUCAGCCUGCCUUGCCUGGAAACAUGGCAAAGACAAUGCUGACA	0.303
GUCAGGUUGGGGACCAACCUUGGGCUUAUCCACCCCCCAGUCUUCCCUCCCUCUCUUGCCAGCACAUCCCUUAGUCCCCUUGAGACAAGUGGACCUAAGUGGCCGAGAGA	0.639
GUACAGGCUAGAAAAGAGUUCUCAACCAGGCUUAACUGGAGUGGUCUCAGAAAGCCAUCAACAGGCUCUGGUAAAACAUAGGUAAAAAUGGGUGAUUAUGAUUGACACUC	0.626

Set 3
Target: ABI1, truncated, D143A, DHFR fusion (Arabidopsis thaliana)
Method: DHFR PCA, deep sequencing
Matrix: yeast
Setting: methotrexate growth selection, single substitutions
Added: (+)-ABA 200 µM
Relative to: wild-type fitted maximum
Direction: higher = stronger binding
Starting sequence: PYL1, truncated, DHFR fusion (Arabidopsis thaliana); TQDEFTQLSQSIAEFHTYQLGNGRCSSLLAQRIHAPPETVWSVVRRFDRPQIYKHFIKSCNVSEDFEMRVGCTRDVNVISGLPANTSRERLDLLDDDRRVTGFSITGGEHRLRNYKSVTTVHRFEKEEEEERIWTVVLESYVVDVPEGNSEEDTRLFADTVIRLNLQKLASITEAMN; partner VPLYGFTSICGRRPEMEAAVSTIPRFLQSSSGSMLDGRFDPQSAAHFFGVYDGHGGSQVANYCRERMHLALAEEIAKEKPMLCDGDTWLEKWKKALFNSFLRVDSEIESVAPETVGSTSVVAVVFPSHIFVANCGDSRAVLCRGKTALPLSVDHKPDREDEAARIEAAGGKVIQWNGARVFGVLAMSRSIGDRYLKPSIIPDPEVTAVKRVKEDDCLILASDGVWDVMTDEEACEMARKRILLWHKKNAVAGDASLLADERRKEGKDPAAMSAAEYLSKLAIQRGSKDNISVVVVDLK
Variant	relative binding score [%]
I52N	90.6
V43H	81.9
W41V	-32.6
V44Q	5.74
E67D	98.2
R155C	90.7
G102K	75.7
V76H	7.72
E125A	101
H110W	17.5
S59A	97.8
G81D	49.2
T173F	84
P50N	-8.17
C60Q	19.4
F124W	111
T119G	-8.2
A158M	84.4
T173K	13.8
I105Q	-4.58
D95Y	62.7
S150Q	77.4
D144W	25.2
S42G	98.3
R69Y	94.9

Set 4
Target: Ras GTPase-activating protein-binding protein 1, full length (G3BP1, Homo sapiens, UniProt Q13283)
Chain of UniProt Q13283 (whole entry, looked up): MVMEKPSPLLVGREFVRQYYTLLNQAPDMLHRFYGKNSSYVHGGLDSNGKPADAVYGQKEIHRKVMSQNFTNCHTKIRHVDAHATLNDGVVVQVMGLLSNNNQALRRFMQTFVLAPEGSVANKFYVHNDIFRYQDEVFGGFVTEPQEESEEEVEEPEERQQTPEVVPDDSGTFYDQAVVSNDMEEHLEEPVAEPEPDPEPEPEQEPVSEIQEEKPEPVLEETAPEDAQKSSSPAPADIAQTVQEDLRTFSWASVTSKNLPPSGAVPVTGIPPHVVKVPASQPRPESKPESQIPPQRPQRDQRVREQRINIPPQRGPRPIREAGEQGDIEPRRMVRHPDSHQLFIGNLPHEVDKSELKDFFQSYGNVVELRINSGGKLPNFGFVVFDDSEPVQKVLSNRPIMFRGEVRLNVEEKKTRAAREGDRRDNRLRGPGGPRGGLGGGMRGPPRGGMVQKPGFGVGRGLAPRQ
Method: RNA Bind-n-Seq
Form: RNA
Matrix: in vitro
Tested at: 200 nM
Setting: whole 134-nt RNA, ends assumed
Added: 150 mM KCl
Relative to: input library
Direction: higher = stronger binding
Shared flanks, not repeated: GGGAGUUCUACAGUCCGACGAUC … UGGAAUUCUCGGGUGUCAAGG
Oligonucleotide	log2 enrichment
CCUGUGCUACACAUCGUAUGUACCGAAUCGGGGAAAAAAGGGAAAAAAGGAAAAAAGGGGAAAGUAUUAUGUUACGCCGUUCGGAUCUGC	-0.605
UCAAGUCCUGUGCUACACAUCGUAUGUACCGAAUCGGUUUGGAAAAAGGAAAGGAAAGUAUUAUGUUACGCCGUUCGGAUCUGCACUUCC	-0.725
UAACUUGAGAGGAGGAUCUGAUGGAUAUGGCAGUGGACGUGGAUUUGGGGAUGGCUAUAAUGGGUAUGGAGGAGGACCUGGAGGUGGCAA	0.412
CCUGUGCUACACAUCGUAUGUACCGAAUCGGGAAAAAAAGGGGAAAAAAAGGAAAAAAAGGAAAGUAUUAUGUUACGCCGUUCGGAUCUG	-0.687
ACCAUGCAGGUGGGCAUCUUUGGGAAGUGGCGCAAGGGGGGGAUAGGGAGGGGGGUAACACUUUGGGAACAGGUGGUCCCAGGUCGUUUC	1.42
UCCUGUGCUACACAUCGUAUGUACCGAAUCGUGUGUGUGUGUGUGUGUGUGUGUGUGUGUAAAGUAUUAUGUUACGCCGUUCGGAUCUGC	0.99
UGGGAGGUGGAUUUUGUUUAUUUUUUUAGCUCAUUUCCAGGGGUGGGAAUUUUUUUUUAAUAUGUGUCAUGAAAAAAGUUGUUUUUGAAA	0.342
CAAGUCCUGUGCUACACAUCGUAUGUACCGAAUCAAACCCAAACCCAAAUUUAAAAAAGUAUUAUGUUACGCCGUUCGGAUCUGCACUUC	-0.472
CCUCAAGUCCUGUGCUACACAUCGUAUGUACCGAAUCGGUGGUGGAAAAAGGAAAGUAUUAUGUUACGCCGUUCGGAUCUGCACUUCCAG	-0.0629

For quick reference, copied from above (set 3):
Variant	relative binding score [%]
D95Y	62.7
S150Q	77.4
D144W	25.2
S42G	98.3
R69Y	94.9
